Measurements of several laboratories.
Protocols differ between the studies behind these lines. Several values in a cell are separate wells, animals, samples, runs or records.
Cell line: UACC-257

SMILES	assay	conditions	how to read	measurement	result
COc1ccc(OC)c(-c2nc3ccc(-c4nc5ccc(N6CCN(C)CC6)cc5[nH]4)cc3[nH]2)c1	SRB	10 µM, 48 h	–	growth percent	105%
Cc1cc(C)n(C(=S)[S][Au][PH](CCCCCC[PH]([Au][S]C(=S)n2nc(C)cc2C)(c2ccccc2)c2ccccc2)(c2ccccc2)c2ccccc2)n1	cell growth, NCI-60 screen	melanoma	–	log10 TGI	> -4
CCCC(CCC)C(=O)OCc1cn(-c2c3ccccc3nc3ccccc23)nn1	NCI60 single-dose screen	10 µM	–	growth percentage	101%
C#C[C@@]1(O)[C@@H](CO)O[C@@H](n2ccc3c(N)ncnc32)[C@@H]1O	SRB	NCI-60 screen	–	TGI	7.05 µM
CCCCN1CCN(c2ccc3[nH]c(-c4ccc5[nH]c(-c6ccc(OCC)cc6)nc5c4)nc3c2)CC1	SRB	10 µM, 48 h	–	growth percent	68.2%
Cc1cc(=O)[nH]n1-c1nc(-c2ccc(Cl)cc2)c2c(NC(=O)c3ccccc3)nnc-2[nH]1	SRB	10 µM, NCI60 single-dose screen	baseline: untreated	cell growth	98.2%
CCCN1CCN(c2ccc3[nH]c(-c4ccc5[nH]c(-c6ccc(OCC)c(OCC)c6)nc5c4)nc3c2)CC1	SRB	10 µM, 48 h	–	growth percent	-29.7%
O=C(Nc1nnc2n3c(nc(-c4ccc(Cl)cc4)c1-2)SCC3=O)c1ccccc1	SRB	10 µM, NCI60 single-dose screen	baseline: untreated	cell growth	104%
CN1CCN(c2ccc3[nH]c(-c4ccc5[nH]c(-c6ccc(C(F)(F)F)cc6)nc5c4)nc3c2)CC1	SRB	10 µM, 48 h	–	growth percent	87.2%
CCOC(=O)CSc1nc(-c2ccc(Cl)cc2)c2c(NC(=O)c3ccccc3)nnc-2[nH]1	SRB	10 µM, NCI60 single-dose screen	baseline: untreated	cell growth	106%
Cn1cncc1C1=CN(c2ncnc3[nH]cnc23)CCS1	–	melanoma cell line	–	TGI	148 µM
CCN(CC)c1ccc(C=NNC(=O)CSc2nc3ccccc3c(=O)n2Cc2ccc(S(N)(=O)=O)cc2)c(O)c1	NCI five-dose screen	–	–	TGI	> 100 µM
CCCN1CCN(c2ccc3[nH]c(-c4ccc5[nH]c(-c6ccc(C(F)(F)F)cc6)nc5c4)nc3c2)CC1	SRB	10 µM, 48 h	–	growth percent	96.5%
Cc1cc(-c2ccccc2)n(-c2nc(-c3ccc(Cl)cc3)c3c(NC(=O)c4ccccc4)nnc-3[nH]2)n1	SRB	10 µM, NCI60 single-dose screen	baseline: untreated	cell growth	98.8%
CCCN1CCN(c2ccc3[nH]c(-c4ccc5[nH]c(-c6cc(OC)c(OC)c(OC)c6)nc5c4)nc3c2)CC1	SRB	10 µM, 48 h	–	growth percent	71.7%
O=c1ccn(Cc2cn(-c3cc4ccccc4oc3=O)nn2)c(=O)[nH]1	NCI60 single-dose screen	10 µM	–	growth percentage	104%
Cc1n[nH]c2nc(-c3ccc(Cl)cc3)c3c(NC(=O)c4ccccc4)nnc-3n12	SRB	10 µM, NCI60 single-dose screen	baseline: untreated	cell growth	107%
O=c1ccn(Cc2cn(-c3c4ccccc4nc4ccccc34)nn2)c(=O)[nH]1	NCI60 single-dose screen	10 µM	–	growth percentage	85.6%
C#C[C@@]1(O)[C@@H](CO)O[C@@H](n2cc(Cl)c3c(N)ncnc32)[C@@H]1O	SRB	NCI-60 screen	–	TGI	63.8 µM and > 100 µM
Cc1cc(C)n(-c2nc(-c3ccc(Cl)cc3)c3c(NC(=O)c4ccccc4)nnc-3[nH]2)n1	SRB	10 µM, NCI60 single-dose screen	baseline: untreated	cell growth	85.2%
